Results from different studies.
Compare with care: the assays were run in different laboratories. Numbers after ± are the reported error.

Structure (SMILES) = CSCC[C@H](NC(=O)CNC(=O)[C@H](CCCCN)NC(=O)[C@H](CC(C)C)NC(=O)[C@@H]1CCCN1C(=O)[C@H](CO)NC(=O)[C@H](Cc1c[nH]cn1)NC(=O)[C@H](Cc1c[nH]c2ccccc12)NC(=O)[C@H](CCCNC(=N)N)NC(=O)[C@H](CC(C)C)NC(=O)[C@H](CCCNC(=N)N)NC(=O)[C@H](Cc1c[nH]c2ccccc12)NC(=O)[C@H](CS)NC(=O)CCCCCNC(=O)CN1CCN(CC(=O)O)CCN(CC(=O)O)CCN(CC(=O)O)CC1)C(=O)O [copper-64 labelled]; test system = BALB/c nude mice, Huh-7 xenograft, tumour; conditions = intravenous, 1.85 MBq, 2 h; endpoint = tumour uptake; value = 4.23 %ID/g
Structure (SMILES) = CCNc1cc2[o+]c3cc(NCC)c(C)cc3c(-c3ccccc3C(=O)OCCOCC[18F])c2cc1C; test system = rat, bone; conditions = 30 min; endpoint = tissue uptake; value = 0.29 ± 0.03 %ID/g
Structure (SMILES) = O=c1cc(-c2ccccc2)oc2c(Br)c(O)c(O)c(O)c12; test system = C57BL/6 mouse, plasma; conditions = po, 150 mg/kg; endpoint = CL; value = 515 ± 298 mL/h
Structure (SMILES) = O=C(c1ccc(F)cc1)C1CCN(C2Cc3c(cccc3OCC[18F])CC2O)CC1 (single isomer, unassigned; (-)); test system = Sprague-Dawley rat, male, kidney; conditions = intravenous, dose not given, 120 min; endpoint = tissue uptake; value = 0.489 ± 0.052 %ID/g
Structure (SMILES) = CCCCCCCCCCCCCCCC(=O)N[C@@H](CCC(=O)NCCCC[C@H](NC(=O)[C@H](CC(=O)O)NC(=O)[C@H](CO)NC(=O)[C@@H](NC(=O)[C@H](Cc1ccccc1)NC(=O)[C@@H](NC(=O)CNC(=O)[C@H](CCC(N)=O)NC(=O)[C@H](C)NC(=O)[C@@H](Cc1ccc(O)cc1)NC(C)=O)[C@@H](C)O)[C@@H](C)O)C(=O)N[C@@H](CO)C(=O)N[C@@H](CCCCN)C(=O)N[C@@H](Cc1ccc(O)cc1)C(=O)N[C@@H](CC(C)C)C(=O)N[C@@H](CC(=O)O)C(=O)N[C@@H](CCC(=O)O)C(=O)N[C@@H](CCCNC(=N)N)C(=O)N[C@@H](C)C(=O)N[C@@H](C)C(=O)N[C@@H](CCC(N)=O)C(=O)N[C@@H](CC(=O)O)C(=O)N[C@@H](Cc1ccccc1)C(=O)N[C@H](C(=O)N[C@@H](CCC(N)=O)C(=O)N[C@@H](Cc1c[nH]c2ccccc12)C(=O)N[C@@H](CC(C)C)C(=O)N[C@@H](CC(C)C)C(=O)N[C@@H](CCC(=O)O)C(=O)NCC(=O)NCC(=O)N1CCC[C@H]1C(=O)N[C@@H](CO)C(=O)N[C@@H](CO)C(=O)NCC(=O)N[C@@H](C)C(=O)N1CCC[C@H]1C(=O)N1CCC[C@H]1C(=O)N1CCC[C@H]1C(=O)N[C@@H](CO)C(N)=O)C(C)C)C(=O)O; test = Holter monitoring; test system = human; conditions = subcutaneous, 150 µg single dose, first 48 h; how to read = baseline: baseline; endpoint = heart rate increase; value = 25 bpm
Structure (SMILES) = O=P1(NCCCl)NCCCO1 (centres unmarked); test system = rat, plasma; conditions = intravenous, 10 mg/kg, together with: ketoconazole 40 mg/kg oral 50 min before; endpoint = Cmax; value = 41.1 ± 11.3 ng/mL
Structure (SMILES) = COc1cc(NC(=O)C(=O)c2c(C)n(Cc3ccc(Cl)cc3)c3ccc(C)cc23)ccn1; test system = male cynomolgus monkey, plasma; conditions = oral, 10 mg/kg; endpoint = AUC(0-inf); value = 3110 ng·h/mL
Structure (SMILES) = COC(=O)C[C@](O)(CCCC(C)(C)OC(C)=O)C(=O)O[C@@H]1C(OC)=C[C@]23CCCN2CCc2cc4c(cc2[C@H]13)OCO4; test system = CD1 mouse, esophagus; conditions = oral, 1 mg/kg, 0.5 h; endpoint = concentration; value = 406 ng/mL
Structure (SMILES) = CCCCCCCC(=O)SCC/C=C/[C@@H]1CC(=O)NCc2nc(cs2)C2=N[C@@](C)(CS2)C(=O)N[C@@H](C(C)C)C(=O)N1; test system = female NIH Swiss mice; conditions = intravenous bolus, 5 mg/kg, two-compartment model; endpoint = clearance; value = 111 mL/min/kg
Structure (SMILES) = O=C(O)CCC(NP(=O)(O)OCCC[C@@H](NC(=O)CCC(NC(=O)CCCCCNC(=O)CCCCCNC(=O)c1ccc([18F])cc1)C(=O)O)C(=O)O)C(=O)O (some centres unmarked); test = radioactivity biodistribution; test system = mouse, CWR22Rv1 xenograft, kidney; conditions = 2 h; endpoint = kidney uptake; value = 7.13 %ID/g
Structure (SMILES) = CCCCCCCCCCCCC(=O)O.O=C1CCCC2C3CCCN4CCCC(CN12)C34 (centres unmarked); test = electrical conductivity; test system = water; conditions = 293.15 K, critical micelle concentration; endpoint = standard entropy of micellization; value = 83 J/(mol·K)

A few entries again:
Structure (SMILES) = CSCC[C@H](NC(=O)CNC(=O)[C@H](CCCCN)NC(=O)[C@H](CC(C)C)NC(=O)[C@@H]1CCCN1C(=O)[C@H](CO)NC(=O)[C@H](Cc1c[nH]cn1)NC(=O)[C@H](Cc1c[nH]c2ccccc12)NC(=O)[C@H](CCCNC(=N)N)NC(=O)[C@H](CC(C)C)NC(=O)[C@H](CCCNC(=N)N)NC(=O)[C@H](Cc1c[nH]c2ccccc12)NC(=O)[C@H](CS)NC(=O)CCCCCNC(=O)CN1CCN(CC(=O)O)CCN(CC(=O)O)CCN(CC(=O)O)CC1)C(=O)O [copper-64 labelled]; test system = BALB/c nude mice, Huh-7 xenograft, tumour; conditions = intravenous, 1.85 MBq, 2 h; endpoint = tumour uptake; value = 4.23 %ID/g
